Literature values that unrelated publications cite.
Protocols differ between the studies behind these lines.

O=c1ncccn1[C@@H]1O[C@H](CO)[C@@H](O)[C@H]1O  IC20 (Jurkat): 10 µM
C[C@H]1COCCN1c1nc(-c2cnc(N)cc2C(F)F)nc(N2CCOCC2)n1  GI50 (NCI-H82): 0.504 µM
O=C(O)O  Km (human neutrophils; anion exchange, substrate; together with: Cl-): 4.1 mM
CN1CC[C@@H](c2c(O)cc(O)c3c(=O)cc(-c4ccc(C(F)(F)F)cc4Cl)oc23)[C@@H]1CO  concentration for near-complete apoptosis (CLL cells; in vitro): ≥ 1.5 µM
OCc1cn(Cc2cccc(Cl)c2)c2ccccc12  GI50 (fifty-eight cancer lines; median): 1.62 µM
CC/C(=C(\c1ccccc1)c1ccc(OCCN(C)C)cc1)c1ccccc1  cell proliferation (MCF7; concentration not given, together with: insulin stimulation): no effect
CC(C)(C)c1nc(-c2cccc(NS(=O)(=O)c3c(F)cccc3F)c2F)c(-c2ccnc(N)n2)s1  IC50 (T98G): 162 µM
[Ru+2].c1ccc(-c2ccnc3c2ccc2c(-c4ccccc4)ccnc23)cc1.c1ccc(-c2ccnc3c2ccc2c(-c4ccccc4)ccnc23)cc1.c1ccc(-c2ccnc3c2ccc2c(-c4ccccc4)ccnc23)cc1  EC50 (Jurkat; light irradiation): 0.075 µM
N#Cc1cc(NC(=O)[C@H]2c3ccccc3C(=O)N(CC(F)(F)F)[C@@H]2c2cccnc2)ccc1F  concentration for maximal eryptosis (trophozoite/schizont-infected erythrocytes): ~40 nM
NC1(c2ccc(-c3nc4ccn5c(=O)[nH]nc5c4cc3-c3ccccc3)cc2)CCC1  IC50 (T98G): 60.4 µM
COc1ccc(-c2coc3cc(O)ccc3c2=O)cc1  TEER increase (Caco-2 monolayers; concentration not given): no effect
CC1(C)S[C@@H]2[C@H](NC(=O)[C@H](N)c3ccccc3)C(=O)N2[C@H]1C(=O)O  MIC (Enterobacter cloacae; clinical isolate RKI-No_546/13): > 16 µg/mL
O=C1CCC(N2C(=O)c3ccccc3C2=O)C(=O)N1 (centres unmarked)  inhibition (MM1.S; cell proliferation; 100 µM): 15%
Nc1cc(C(F)(F)F)c(-c2nc(N3CCOCC3)nc(N3CCOCC3)n2)cn1  GI50 (NCI-H460): 0.477 µM
Cn1ncc(Cl)c1-c1cc(C(=O)N[C@H](CN)Cc2ccc(F)c(F)c2)oc1Cl  IC50 (T98G): 23.9 µM
CC(=O)c1c(C)c2cnc(Nc3ccc(N4CCNCC4)cn3)nc2n(C2CCCC2)c1=O  MAPK phosphorylation (human neutrophils; concentration not given, together with: fMLF): no effect
COc1cc2ncnc(Nc3ccc(F)c(Cl)c3)c2cc1OCCCN1CCOCC1  mean TGI (NCI60 panel; cell growth): 19 µM
Cc1c(C#N)cccc1[C@@H](C)Nc1nnc(C)c2cnc(N3CCOCC3)cc12  IC50 (HT115; 3D cell viability; 7 d): > 1 µM
CC(=O)c1c(C)c2cnc(Nc3ccc(N4CCNCC4)cn3)nc2n(C2CCCC2)c1=O  IC50 (T98G): 62.9 µM
COc1ccc(-c2coc3cc(O)cc(O)c3c2=O)cc1  TEER increase (Caco-2 monolayers; 50 µM, 5 days): ≤ 36%
CNC(C)C1CCC(N)C(OC2C(N)CC(N)C(OC3OCC(C)(O)C(NC)C3O)C2O)O1 (centres unmarked)  MIC (Escherichia coli; clinical isolate RKI 131/08): > 8 µg/mL
O=C(Nc1cccc2c(=O)cc(-c3nnn[nH]3)oc12)c1ccc(OCCCCc2ccccc2)cc1  maximal inhibition (HEK293; VRAC current, inhibitor; hypotonic swelling-activated): ~50%
CC(C)(C)c1ccc(O)c(CN(Cc2cc(C(C)(C)C)ccc2O)C2CCC(NC(N)=O)CC2)c1 (centres unmarked)  nitric oxide release (HMC3; concentration not given, together with: thrombin): decreased
